Measured values gathered from unrelated publications.
Protocols differ between the studies behind these lines. “And” joins repeats or separate records; there may be more than shown. ± gives the spread as reported.
TRPV1: Transient receptor potential cation channel subfamily V member 1 (TRPV1, Homo sapiens, UniProt Q8NER1)
UniProt Q8NER1, sequence (whole entry, looked up): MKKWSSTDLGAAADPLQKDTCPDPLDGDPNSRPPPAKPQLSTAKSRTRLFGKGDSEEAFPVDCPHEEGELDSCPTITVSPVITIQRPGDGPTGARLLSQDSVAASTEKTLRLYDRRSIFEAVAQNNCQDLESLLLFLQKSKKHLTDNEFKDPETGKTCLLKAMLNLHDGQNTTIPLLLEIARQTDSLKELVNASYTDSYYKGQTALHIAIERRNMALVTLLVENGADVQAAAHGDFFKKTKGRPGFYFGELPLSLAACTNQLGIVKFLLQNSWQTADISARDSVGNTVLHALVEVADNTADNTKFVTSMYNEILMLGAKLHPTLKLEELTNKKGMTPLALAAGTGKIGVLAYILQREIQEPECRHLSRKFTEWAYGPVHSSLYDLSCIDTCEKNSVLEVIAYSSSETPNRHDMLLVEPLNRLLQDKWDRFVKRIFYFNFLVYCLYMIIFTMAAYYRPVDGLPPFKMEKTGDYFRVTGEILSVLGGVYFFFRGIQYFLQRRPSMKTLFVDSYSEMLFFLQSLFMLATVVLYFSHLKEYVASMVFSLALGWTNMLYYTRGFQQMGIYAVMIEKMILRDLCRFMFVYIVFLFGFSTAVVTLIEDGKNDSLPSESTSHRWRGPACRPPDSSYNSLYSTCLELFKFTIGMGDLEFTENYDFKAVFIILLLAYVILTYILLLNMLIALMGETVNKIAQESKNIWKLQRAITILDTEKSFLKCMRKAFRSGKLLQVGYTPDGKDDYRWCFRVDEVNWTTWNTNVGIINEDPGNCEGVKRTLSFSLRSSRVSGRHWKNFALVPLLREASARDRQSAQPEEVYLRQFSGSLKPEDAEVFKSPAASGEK
NR4A1: Nuclear receptor subfamily 4 group A member 1 (NR4A1, Homo sapiens, UniProt P22736)
UniProt P22736, sequence (whole entry, looked up): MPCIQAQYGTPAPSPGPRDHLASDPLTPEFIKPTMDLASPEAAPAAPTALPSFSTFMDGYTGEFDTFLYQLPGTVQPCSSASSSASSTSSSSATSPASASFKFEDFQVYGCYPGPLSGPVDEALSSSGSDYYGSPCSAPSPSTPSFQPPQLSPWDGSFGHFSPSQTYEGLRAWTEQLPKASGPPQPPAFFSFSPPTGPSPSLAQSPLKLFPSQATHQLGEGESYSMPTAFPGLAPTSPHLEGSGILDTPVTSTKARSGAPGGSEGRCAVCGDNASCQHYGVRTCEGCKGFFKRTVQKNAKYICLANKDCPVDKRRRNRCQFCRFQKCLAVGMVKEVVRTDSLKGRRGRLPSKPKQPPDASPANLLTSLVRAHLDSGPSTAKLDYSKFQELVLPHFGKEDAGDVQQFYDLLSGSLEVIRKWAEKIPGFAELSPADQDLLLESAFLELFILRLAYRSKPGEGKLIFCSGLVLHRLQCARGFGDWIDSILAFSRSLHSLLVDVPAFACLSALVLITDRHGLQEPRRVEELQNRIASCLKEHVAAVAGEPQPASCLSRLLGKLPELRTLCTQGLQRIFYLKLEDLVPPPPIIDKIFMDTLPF
HOG1: Mitogen-activated protein kinase HOG1 (HOG1, Candida albicans, UniProt Q92207)
UniProt Q92207, sequence (whole entry, looked up): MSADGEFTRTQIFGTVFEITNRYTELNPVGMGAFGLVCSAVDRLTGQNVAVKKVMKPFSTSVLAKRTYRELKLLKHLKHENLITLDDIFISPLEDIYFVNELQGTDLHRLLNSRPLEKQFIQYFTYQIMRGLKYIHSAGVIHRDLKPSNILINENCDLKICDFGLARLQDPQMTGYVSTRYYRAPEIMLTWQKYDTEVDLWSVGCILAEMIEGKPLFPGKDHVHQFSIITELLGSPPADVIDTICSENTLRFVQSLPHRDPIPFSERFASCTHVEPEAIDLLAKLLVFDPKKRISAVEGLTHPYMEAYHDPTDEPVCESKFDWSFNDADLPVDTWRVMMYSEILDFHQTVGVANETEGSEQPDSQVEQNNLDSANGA
T1: ssDNA, aptamer; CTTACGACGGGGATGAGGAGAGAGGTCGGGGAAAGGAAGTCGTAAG
UniProt Q16774, sequence (whole entry, looked up): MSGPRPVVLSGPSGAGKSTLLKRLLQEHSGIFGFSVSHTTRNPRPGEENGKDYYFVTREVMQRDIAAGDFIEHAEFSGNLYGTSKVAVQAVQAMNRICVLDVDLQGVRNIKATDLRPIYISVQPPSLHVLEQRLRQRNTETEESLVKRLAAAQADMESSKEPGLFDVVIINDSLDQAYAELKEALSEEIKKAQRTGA
UniProt P05164, sequence (whole entry, looked up): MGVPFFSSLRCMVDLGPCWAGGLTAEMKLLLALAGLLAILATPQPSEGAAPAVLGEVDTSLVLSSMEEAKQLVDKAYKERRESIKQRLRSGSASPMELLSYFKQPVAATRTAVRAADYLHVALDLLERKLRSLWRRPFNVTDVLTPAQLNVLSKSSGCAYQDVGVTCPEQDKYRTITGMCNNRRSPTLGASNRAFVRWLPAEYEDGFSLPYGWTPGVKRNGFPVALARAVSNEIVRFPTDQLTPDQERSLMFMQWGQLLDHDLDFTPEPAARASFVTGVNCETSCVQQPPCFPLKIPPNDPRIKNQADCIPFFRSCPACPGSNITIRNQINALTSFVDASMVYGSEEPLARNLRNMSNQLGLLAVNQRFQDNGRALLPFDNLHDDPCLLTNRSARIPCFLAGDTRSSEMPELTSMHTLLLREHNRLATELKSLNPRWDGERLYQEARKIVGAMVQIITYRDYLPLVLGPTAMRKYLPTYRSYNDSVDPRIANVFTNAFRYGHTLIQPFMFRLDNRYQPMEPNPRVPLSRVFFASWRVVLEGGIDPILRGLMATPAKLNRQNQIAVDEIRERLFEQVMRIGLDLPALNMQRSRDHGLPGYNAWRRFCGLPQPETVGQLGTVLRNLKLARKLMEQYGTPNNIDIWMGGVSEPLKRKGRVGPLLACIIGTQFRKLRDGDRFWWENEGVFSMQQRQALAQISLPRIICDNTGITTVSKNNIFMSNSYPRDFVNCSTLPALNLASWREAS
UniProt O75762, sequence (whole entry, looked up): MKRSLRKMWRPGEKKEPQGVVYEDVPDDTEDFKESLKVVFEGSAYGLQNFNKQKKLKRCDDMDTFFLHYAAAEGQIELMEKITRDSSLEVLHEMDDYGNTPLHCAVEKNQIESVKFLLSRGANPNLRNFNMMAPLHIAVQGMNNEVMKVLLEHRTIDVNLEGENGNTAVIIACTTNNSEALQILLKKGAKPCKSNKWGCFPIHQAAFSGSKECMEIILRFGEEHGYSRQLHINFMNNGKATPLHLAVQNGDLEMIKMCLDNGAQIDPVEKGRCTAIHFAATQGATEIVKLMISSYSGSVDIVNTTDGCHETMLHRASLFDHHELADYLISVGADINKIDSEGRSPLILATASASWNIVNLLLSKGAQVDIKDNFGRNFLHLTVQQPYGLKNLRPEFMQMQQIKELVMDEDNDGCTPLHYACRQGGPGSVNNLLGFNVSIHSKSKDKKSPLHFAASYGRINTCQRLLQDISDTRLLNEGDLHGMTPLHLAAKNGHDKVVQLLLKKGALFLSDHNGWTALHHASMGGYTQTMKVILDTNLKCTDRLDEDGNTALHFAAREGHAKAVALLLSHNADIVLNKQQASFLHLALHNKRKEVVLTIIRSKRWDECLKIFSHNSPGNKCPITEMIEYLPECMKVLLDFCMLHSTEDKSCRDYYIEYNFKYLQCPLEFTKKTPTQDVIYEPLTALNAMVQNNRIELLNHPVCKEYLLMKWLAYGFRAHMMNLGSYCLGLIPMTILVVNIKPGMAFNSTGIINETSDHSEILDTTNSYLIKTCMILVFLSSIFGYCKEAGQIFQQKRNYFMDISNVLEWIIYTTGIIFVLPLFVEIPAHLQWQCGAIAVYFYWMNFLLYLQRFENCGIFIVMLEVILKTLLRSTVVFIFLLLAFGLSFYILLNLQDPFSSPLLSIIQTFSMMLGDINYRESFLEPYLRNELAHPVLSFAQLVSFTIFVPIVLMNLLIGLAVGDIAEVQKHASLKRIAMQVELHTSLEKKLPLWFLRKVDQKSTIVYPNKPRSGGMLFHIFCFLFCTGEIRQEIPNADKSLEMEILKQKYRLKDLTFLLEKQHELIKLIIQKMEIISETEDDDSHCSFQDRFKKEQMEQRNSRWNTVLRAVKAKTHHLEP
UniProt Q96SW2, sequence (whole entry, looked up): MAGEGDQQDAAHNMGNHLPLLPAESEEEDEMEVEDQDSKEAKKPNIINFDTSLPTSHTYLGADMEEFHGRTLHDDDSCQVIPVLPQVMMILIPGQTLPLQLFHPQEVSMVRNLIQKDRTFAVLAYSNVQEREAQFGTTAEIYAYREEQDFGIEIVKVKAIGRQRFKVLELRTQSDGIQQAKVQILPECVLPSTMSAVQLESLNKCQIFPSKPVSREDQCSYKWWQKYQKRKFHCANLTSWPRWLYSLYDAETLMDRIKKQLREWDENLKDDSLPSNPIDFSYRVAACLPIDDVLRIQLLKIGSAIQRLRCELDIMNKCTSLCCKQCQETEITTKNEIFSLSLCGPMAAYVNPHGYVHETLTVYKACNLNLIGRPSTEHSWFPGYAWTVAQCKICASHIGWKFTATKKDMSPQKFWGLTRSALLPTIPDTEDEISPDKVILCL
UniProt P51575, sequence (whole entry, unmodified, looked up): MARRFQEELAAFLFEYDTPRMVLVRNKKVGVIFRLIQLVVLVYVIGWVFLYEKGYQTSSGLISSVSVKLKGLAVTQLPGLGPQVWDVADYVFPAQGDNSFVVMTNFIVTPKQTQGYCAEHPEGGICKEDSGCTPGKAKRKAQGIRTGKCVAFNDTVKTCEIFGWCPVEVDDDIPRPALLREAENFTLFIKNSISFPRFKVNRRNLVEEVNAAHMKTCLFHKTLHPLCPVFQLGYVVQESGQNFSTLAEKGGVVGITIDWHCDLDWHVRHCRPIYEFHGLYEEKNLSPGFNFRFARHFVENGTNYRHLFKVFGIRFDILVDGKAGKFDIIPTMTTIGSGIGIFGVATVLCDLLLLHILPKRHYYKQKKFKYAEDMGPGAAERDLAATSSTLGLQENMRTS
UniProt P00004, sequence (whole entry, looked up): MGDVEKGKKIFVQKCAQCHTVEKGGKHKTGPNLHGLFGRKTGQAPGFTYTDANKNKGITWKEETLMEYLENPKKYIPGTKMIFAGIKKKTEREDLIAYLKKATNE
UniProt P00441, sequence (whole entry, unmodified, looked up): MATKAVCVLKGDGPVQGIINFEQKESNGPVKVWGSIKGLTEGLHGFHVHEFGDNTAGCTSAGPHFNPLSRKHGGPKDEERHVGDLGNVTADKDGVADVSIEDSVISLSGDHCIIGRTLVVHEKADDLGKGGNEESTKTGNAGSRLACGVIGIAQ

The relative koff of `CC1=C(/C=C/C(C)=C/C=C/C(C)=C/C=O)C(C)(C)CCC1` is reported as 1.83 ± 0.14 (Rhodopsin (RHO, Bos taurus, UniProt P02699, G270L); retinal release, Trp FRET; lipid bicelles; 28 °C, G270L mutant; relative to: wild-type rhodopsin).
The calcium response of `COc1cc(CNC(=O)CCCC/C=C/C(C)C)ccc1O` is reported as 9.69 a.u. and 7.06 a.u. and 3.9 a.u. and 9.57 a.u. (TRPV1; channel activation, FLIPR calcium; HEK293T; 0.0274 µM; higher = more activation).
For `O=C1CCC(N2Cc3cc(NC(=O)c4cccc(F)c4)ccc3C2=O)C(=O)N1` (stereo not drawn), “degradation rate constant” read 1.3 h⁻¹ (Cereblon/Casein kinase I alpha (CSNK1A1/CRBN, Homo sapiens, UniProt P48729+Q96SW2); degrader, live-cell HiBiT kinetic; HEK293 LgBiT; 10 µM).
For `CC(=O)N[C@@H]1[C@@H](O[C@H]2O[C@H](CO)[C@H](O)[C@H](O)[C@H]2O)[C@@H](O)[C@@H](CO)O[C@H]1O`, “association rate constant” read 3960 M⁻¹ s⁻¹ (Frizzled-8 (Xenopus laevis, UniProt Q91719); binding, biolayer interferometry; 25 °C, added: immobilized biotinylated carbohydrate).
The protein adduct of `CCC1(O)CCCN(C(=O)c2ccc(-c3ccc(F)c(NC(=O)CCl)c3)cc2)C1` (stereo not drawn) is reported as 65% (DNA dC->dU-editing enzyme APOBEC-3B, C-terminal domain (Homo sapiens, UniProt Q9UH17); covalent modifier, intact protein mass spectrometry, item: adduct +25721 Da; 500 µM, 3 h, 20-fold molar excess).
With `CC(C)C(=O)Nc1n[nH]c2cc(-c3cccc(NS(=O)(=O)C4CC4)c3)ccc12` the ADP produced was 2.8 µM (Phosphatidylinositol 4-phosphate 5-kinase type-1 gamma (PIP5K1C, Homo sapiens, UniProt O60331); ADP-Glo; 508 pM, added: 10 µM ATP).
`Nc1ncnc2c1ncn2[C@@H]1O[C@H](COP(=O)(O)OP(=O)(O)OP(=O)(O)O)[C@@H](O)[C@H]1O` has a peak current of 5420 nA (P2X purinoceptor 2 (P2RX2, Homo sapiens, UniProt Q9UBL9, D148K); ion current, agonist, two-electrode voltage clamp; Xenopus oocytes; concentration not given, first maximal application).
With `Nc1ncnc2c1ncn2[C@@H]1O[C@H](CO)[C@@H](O)[C@H]1O` the Kd was 38.6 µM (T1, ssDNA, aptamer; ITC).
`Cc1cccc(NC(=O)Cn2cc(CO)c3ccccc32)c1` gave a koff of 0.0292 ± 8.4e-05 s⁻¹ (Sodium channel protein type 8 subunit alpha, C-terminal domain (SCN8A, Homo sapiens, UniProt Q9UQD0); binder, SPR).
`CCOC(=O)c1cc(Cl)cc(NC(=O)c2sc(Cl)cc2S(=O)(=O)N(C)c2ccc(OCC)c(OC)c2)c1`: activity “inactive” (Peroxisome proliferator-activated receptor delta (PPARD, Homo sapiens, UniProt Q03181); concentration not given).
Under “ternary complex formation”, `O=C1CCC(N2Cc3cc(CNC(=O)C(F)(F)c4ccc(Cl)cc4)ccc3C2=O)C(=O)N1` (stereo not drawn) is recorded as 100% (GSPT1/CRBN, 300-496; with DDB1 (Homo sapiens, UniProt P15170+Q96SW2); degrader, AlphaLISA; 1 µM; relative to: reference compound).
`Nc1ncnc2c1ncn2[C@@H]1O[C@H](COP(=O)(O)OP(=O)(O)OP(=O)(O)O)[C@@H](O)[C@H]1O`: “nucleotide addition rate” 36 ± 2 s⁻¹ (DNA-directed RNA polymerase subunit beta' / DNA-directed RNA polymerase subunit beta (rpoC/rpoB, Escherichia coli, UniProt P0A8T7+P0A8V2); RNA extension, rapid quench-flow; Escherichia coli, elongation complex, 6-MI template; 200 µM, 25 °C, fast complex fraction).
`COc1cc(CNC(=O)CCCC/C=C/C(C)C)ccc1O` — result for “open time constant”: 5.61 ms (TRPV1; channel gating, single-channel inside-out patch; 100 nM, component 2 of four).
With `O=C(O)c1ccc(Nc2ncc3c(n2)-c2ccc(Cl)cc2C(c2c(F)cccc2F)=NC3)cc1` the remaining activity was 96% (human ZAP-70(h); kinase activity; 1 µM).
`Nc1ncnc2c1ncn2[C@@H]1O[C@H](COP(=O)(O)CP(=O)(O)OP(=O)(O)O)[C@@H](O)[C@H]1O` has a specific binding of 1070 CCPM and 756 CCPM (P2X purinoceptor 1 (P2RX1, Homo sapiens, UniProt P51575, E282A); saturation binding; HEK293; 25 nM).
With `C[C@@H](c1ccc(-n2cnc3c(N)ncnc32)cc1)N1CCc2nn(C)c(Cc3ccccc3)c2C1=O` the remaining binding was 74% (Non-receptor tyrosine-protein kinase TYK2, JH2 pseudokinase domain (TYK2, Homo sapiens, UniProt P29597); KINOMEscan; 0.1 µM; relative to: DMSO control).
With `COc1cc(/C=C/c2ccc(O)cc2)cc(OC)c1` the binding stoichiometry was 0.86 ± 0.018 sites (O-methyltransferase (Sorghum bicolor, UniProt A0A1B6PFV1); isothermal titration calorimetry; concentration not given, apo protein).
`CCN1CCN(c2cc(N3CCN(CC)CC3)nc(NCCNc3ccnc4cc(Cl)ccc34)n2)CC1` has an activation of 1.18 ± 0.15 fold (NR4A1; reporter gene, Gal4 hybrid reporter; 10 µM; relative to: vehicle).
Under “log2 fold change”, `Cc1n[nH]c2ccc(-c3cc(OC[C@@H](N)Cc4ccccc4)cnc3-c3ccoc3)cc12` is recorded as -0.916 (HOG1; MIB/MS competition binding; Candida albicans cell lysate; 10 µM; relative to: DMSO, lower = stronger binding).
`CCCC[C@@H]1NC(=O)[C@H](Cc2ccc(O)cc2)NC(=O)[C@@H]2CCCN2C(=O)[C@H](CC(=O)O)NC(=O)[C@H](C)NC(=O)[C@H](Cc2ccccc2)NC(=O)[C@@H]2CSCCC(=O)N3CN(CN(C3)C(=O)CCSC[C@H](NC(C)=O)C(=O)N[C@@H](CC(C)(C)C)C(=O)N3CCC[C@H]3C(=O)N[C@@H](CCC(=O)O)C(=O)N[C@H](CCCCNC(=O)CCc3cn(CCOCCOCCOCCOCCOCCC(=O)N[C@H]4CSCCC(=O)N5CN6CN(C5)C(=O)CCSC[C@H](NC(=O)[C@@H](CC(=O)O)NC(=O)[C@H](Cc5cccc7ccccc57)NC(=O)[C@@H]5CCCN5C4=O)C(=O)N[C@@H](CCSC)C(=O)N[C@@H](CCCCNC(=N)N)C(=O)N[C@@H](CC(=O)O)C(=O)N[C@@H](Cc4c[nH]c5ccccc45)C(=O)N[C@@H](CO)C(=O)N[C@@H]([C@@H](C)O)C(=O)N4CCC[C@H]4C(=O)N4C[C@H](O)C[C@H]4C(=O)N[C@@H](Cc4c[nH]c5ccccc45)C(=O)N[C@H](C(N)=O)CSCCC6=O)nn3)C(=O)N3CCC[C@H]3C(=O)N[C@@H](Cc3ccc(O)cc3)C(=O)N2)C(=O)CCSCCNC1=O` has an Emax of 37 fold (Tumor necrosis factor receptor superfamily member 9/Nectin-4 (Homo sapiens, UniProt Q07011+Q96NY8); reporter gene, agonist; HT-1376 coculture with reporter cells; relative to: background).
Under “log2 fold change”, `c1coc(-c2n[nH]cc2-c2ccnc3ccccc23)c1` is recorded as -0.18 (HOG1; kinase binding, MIB/MS competition; Candida albicans lysate; 10 µM; relative to: DMSO, negative = stronger binding).
`CC(C)OCCn1c(=S)[nH]c(=O)c2[nH]ccc21`: “LDL lipid peroxidation” 21.4% and 32.1% and 27.4% and 60.5% (Myeloperoxidase (MPO, Homo sapiens, UniProt P05164); inhibitor, cholesteryl ester hydroperoxide; 1.111 µM; relative to: control).
For `Nc1ccc(S(=O)(=O)Nc2nnc(Cc3ccc(Cl)cc3)s2)cc1`, the Kii was 419 ± 27 µM (Glutathione hydrolase 1 proenzyme, without transmembrane domain (Homo sapiens, UniProt P19440); GSH hydrolysis, uncompetitive inhibitor; 37 °C, binds gamma-glutamyl enzyme, added: GSH 5-20 µM).
`C[C@H]1O[C@@H](O[C@H]2CC[C@@]3(C)[C@@H](CC[C@]4(C)[C@@H]3C=CC3=C5CC(C)(C)CC[C@]5(CO)[C@@H](O)C[C@]34C)[C@]2(C)CO)[C@H](O)[C@@H](O[C@@H]2O[C@H](CO)[C@@H](O)[C@H](O)[C@H]2O)[C@H]1O`: “MST normalised fluorescence” 884 a.u. (NAD-dependent protein deacetylase sirtuin-1 (SIRT1, Homo sapiens, UniProt Q96EB6); binding, microscale thermophoresis; 185 nM).
`[Ca]` gave a potentiation of 3.44 fold change and 2.7 fold change and 1.58 fold change and 3.76 fold change and 2.29 fold change (Transient receptor potential cation channel subfamily A member 1 (TRPA1, Homo sapiens, UniProt O75762); ion current, two-electrode voltage clamp; Xenopus oocytes; concentration not given, +80 mV, added: extracellular Ca2+; relative to: current before Ca2+ addition).
The remaining binding of `C=CC(=O)N1CCC(COCC(=O)N2CCN(c3nc(-c4cnc(N)nc4C(F)F)nc(N4CCOC[C@@H]4C)n3)CC2)CC1` is reported as 100% (MAP kinase-activated protein kinase 5 (MAPKAPK5, Homo sapiens, UniProt Q8IW41); KINOMEscan; 1 µM).
For `O=c1nc(SCc2cc(F)cc(C(F)(F)F)c2)nc(SCc2ccc3nc(OCCN4CCOCC4)ccc3c2)[nH]1`, the decatenated DNA was 72.7% (DNA topoisomerase 2-alpha (TOP2A, Homo sapiens, UniProt P11388); decatenation; 15.6 µM, replicate 2).
For `COCCC(=O)N1CCC(Oc2ccccc2)C1` (stereo not drawn), the fold enrichment was 0.817 (FBXW7 (Homo sapiens, UniProt Q969H0); binding, affinity selection mass spectrometry; relative to: other proteins in batch).
The inhibition of `Cc1ccnc(OC[C@H]2CN(CC(=O)N3CCc4ccccc43)CCO2)c1` is reported as 36.1% (5-hydroxytryptamine receptor 2B (HTR2B, Homo sapiens, UniProt P41595); radioligand binding; concentration not given, added: [3H]LSD).
`[O-][S+]1CCCCS1` (stereo not drawn) — result for “SOD1 monomer fraction”: 99.7% (Superoxide dismutase [Cu-Zn] (SOD1, Homo sapiens, UniProt P00441, G94A); LC-MS; brain homogenate; 0.5 µM, 1 h, 37 °C).
`CNc1ccc(C#N)cc1-n1cnc(-c2ccc([N+](=O)[O-])cc2)c1` gave a maximal activation of ≥ 50% (Toll-like receptor 1/2 (Homo sapiens, UniProt O60603+Q15399); reporter gene, agonist; HEK-Blue hTLR2; concentration not given).
The activation of `C=C1C(=O)O[C@@H]2C[C@@]3(C)CCCC(=C)[C@@H]3C[C@H]12` is reported as 0.83 fold (NR4A1; reporter gene, NBRE reporter full-length; 10 µM; relative to: vehicle).
The Ka of `CCCCCCCC/C=C\CCCCCCCC(=O)OC[C@H](COP(=O)(O)OCC(O)COP(=O)(O)OC[C@@H](COC(=O)CCCCCCC/C=C\CCCCCCCC)OC(=O)CCCCCCC/C=C\CCCCCCCC)OC(=O)CCCCCCC/C=C\CCCCCCCC` (stereo partly drawn) is reported as 300000 ± 30000 M⁻¹ (CYCS (Equus caballus, UniProt P00004); bio-layer interferometry; DOPC/cardiolipin membranes).
With `CC(=O)N[C@H](C(=O)N1C[C@H](O)C[C@H]1C(=O)NCc1ccc(-c2scnc2C)cc1)C(C)(C)SCCCCCCNC(=O)C[C@@H]1N=C(c2ccc(Cl)cc2)c2c(sc(C)c2C)-n2c(C)nnc21` the −TΔS was 6.7 ± 0.7 kcal/mol (Bromodomain-containing protein 2, BD1 (BRD2, Homo sapiens, UniProt P25440); binding, ITC; 25 °C, compound in cell, protein in syringe).
`[Cl-].[Na+]` has a reaction velocity of 0.0124 µM/s and 0.0297 µM/s and 0.0336 µM/s (GUK1 (Homo sapiens, UniProt Q16774); enzyme activity, NADH-coupled; 60 mM).
For `[H]/N=C(/N)NCC(=O)O`, “normalised MST signal” read -0.00654 (Sodium- and chloride-dependent taurine transporter (SLC6A6, Homo sapiens, UniProt P31641, G62A); binding, microscale thermophoresis; 62.5 µM, room temperature, added: 50 nM labelled protein; higher = more binding).
